Results from different studies.
Lines come from different studies, so protocols differ. Values joined by “and” are separate records of one study, mostly repeats; a detail may differ. ± marks the error that the study gave. In brackets after ≈: the same amount, converted by molar mass.

Cl.[2H]C([2H])([2H])CC(=O)c1cnc(NC(=O)C2CC2)cc1Nc1cccc(-c2ncn(C([2H])([2H])[2H])n2)c1OC — AUC(0-inf) (geometric mean; human; oral, 5 mg single dose, fasted, liquid): 336 ng·h/mL
C[C@@H](N)C1CCN(S(=O)(=O)c2cccc3cnccc23)CC1 — incidence of syncope (healthy volunteers; oral, 250 mg, single ascending dose, fasted): 33.3%
CCCCc1ccc(C#Cc2ccc(OCC)cc2)cc1 — median placental accumulation (rat, placenta; 5000 ng/mL in perfusate, high dose, mixture of 21 LCMs): 186 ng/g
CCc1cc(C(=O)NC)c2nccc(N3CCc4c(cc(Cn5ccnc5)cc4-c4cn(C)nc4C(F)(F)F)C3=O)c2c1 — serum ALT change (Sprague Dawley rats; oral, 100 mg/kg twice daily, 7 days; relative to: vehicle): -8.8%
COCCOc1cnc2ccn([C@H](C)c3nnc4c(F)cc(-c5cnn(C)c5)cn34)c(=O)c2c1 — Ctrough (patients, plasma; oral, 150 mg twice daily, day 1 predose, 300 per day): 1320 ng/mL
O=C(N[C@H](Cc1c[nH]c2ccccc12)C(=O)Nc1ccncc1)c1ccc(-c2cc(C(F)(F)F)ccc2F)cc1F — concentration (Swiss Webster mouse, female, liver; oral, 50 mg/kg, 2 h, 20% Kolliphor vehicle): 81 µM
NC[C@H](NC(=O)c1ccc(C#CC#Cc2ccccc2)cc1)C(=O)NO — thermodynamic solubility (aqueous buffer; pH 7.4): < 7.14 µM
Cn1cc(Nc2nccc(-c3ccc4c(c3)CN(C3COC3)CC[C@H]4NC(=O)c3cn(C(C)(C)C)nn3)n2)cn1 — percent change from baseline (item: Granulocytes count; human, clinical trial, whole blood; 150 mg twice daily, follow-up): 37.4%
O=C(Nc1nc2cccc(-c3ccc(CN4CCS(=O)(=O)CC4)cc3)n2n1)C1CC1 — treatment-emergent adverse events (item: paraesthesia; human rheumatoid arthritis patients; oral, 30 mg once daily, 4 weeks, regardless of relatedness): 5.9%
O=C1CCc2ccc(OCCCCN3CCN(c4cccc(Cl)c4Cl)CC3)cc2N1 — adverse event incidence (item: Sedation; genotyped patients, CYP2D6 poor metabolizers; dose not given, long-acting oral or depot): 5.3%
O=C(O)c1cccc(C(=O)O)c1 — apparent dissolution enthalpy (betaine/ethylene glycol DES-water; DES mass fraction 0.70): 3.63 kcal/mol
CCO — AUEC(0-4 h) pulse rate (healthy Chinese men; 0.5 g/kg, with: placebo): 16.7 ± 12.3 h·bpm
c1csc(CNc2cc[nH]n2)c1 — tail DNA (mean) (DNA damage, alkaline comet; Hsd:ICR(CD-1) mice, male, liver; oral gavage, 125 mg/kg/day, 3 days): 1.8%
Cn1ccnc1CNc1nc(-c2ccccn2)nc2ccccc12 — kinetic solubility (Japanese Pharmacopoeia disintegration test solution 2; pH 6.8): 80 µg/mL (≈ 253 µM)
CN(C(=O)n1cnc(-c2cccnc2)c1)[C@H]1CC[C@H](O)CC1 — tissue concentration (rat, hippocampus; oral, 10 mg/kg daily for 5 days, 48 h): 14.8 ± 1.4 ng/g
CCc1c(-c2ccccc2)c(-c2ccccc2)nn1-c1ccccc1-c1cccc(OCC(=O)O)c1 — concentration (male Sprague-Dawley rat, testis homogenate; oral, 10 mg/kg, 4 h): 59.4 ng/mL
CCN1/C(=C/C(C)=O)Sc2ccc(F)cc21 — QTc interval change (cynomolgus monkey; oral, 10 mg/kg, 2 h post-dose; relative to: pre-dose): 99.2 ± 3.3%
O=C1NCCc2nc(OCc3cccc(F)c3)ccc21 — respiratory rate score (modified Irwin test; Sprague-Dawley rat, male; oral, 100 mg/kg, 1 h; higher = stronger change): 0
Cc1cc(C)c(CNC(=O)c2cc(Cl)c3c(c2C)O[C@@](C)([C@H]2CC[C@H](N(C)C)CC2)O3)c(=O)[nH]1 — fecal excretion (radiochromatography; human, feces; oral, 200 mg; relative to: dose): 68.8% and 66.7% and 71.7% and 79.3%
COc1ccc([C@@H](O)c2cc(-c3ncnc4cc(N5CCOCC5)ccc34)c(F)cc2Cl)nn1 — fatigue TEAE incidence (locally advanced rectal cancer patients; 50 mg, with: capecitabine and radiotherapy): 100%

Excerpt of the above:
c1csc(CNc2cc[nH]n2)c1 — tail DNA (mean) (DNA damage, alkaline comet; Hsd:ICR(CD-1) mice, male, liver; oral gavage, 125 mg/kg/day, 3 days): 1.8%
COCCOc1cnc2ccn([C@H](C)c3nnc4c(F)cc(-c5cnn(C)c5)cn34)c(=O)c2c1 — Ctrough (patients, plasma; oral, 150 mg twice daily, day 1 predose, 300 per day): 1320 ng/mL
O=C(N[C@H](Cc1c[nH]c2ccccc12)C(=O)Nc1ccncc1)c1ccc(-c2cc(C(F)(F)F)ccc2F)cc1F — concentration (Swiss Webster mouse, female, liver; oral, 50 mg/kg, 2 h, 20% Kolliphor vehicle): 81 µM
